Measurements of several laboratories.
A part holds a random share of what one study measured.

Block 1 — method: RNA Bind-n-Seq; form: RNA; sample: in vitro; concentration: 200 nM; notes: whole 134-nt RNA, ends assumed; together with: 150 mM KCl; relative to: input library; reading: higher = stronger binding
Target: Ras GTPase-activating protein-binding protein 1, full length (G3BP1, Homo sapiens, UniProt Q13283)
Sequence of UniProt Q13283 (whole entry, looked up): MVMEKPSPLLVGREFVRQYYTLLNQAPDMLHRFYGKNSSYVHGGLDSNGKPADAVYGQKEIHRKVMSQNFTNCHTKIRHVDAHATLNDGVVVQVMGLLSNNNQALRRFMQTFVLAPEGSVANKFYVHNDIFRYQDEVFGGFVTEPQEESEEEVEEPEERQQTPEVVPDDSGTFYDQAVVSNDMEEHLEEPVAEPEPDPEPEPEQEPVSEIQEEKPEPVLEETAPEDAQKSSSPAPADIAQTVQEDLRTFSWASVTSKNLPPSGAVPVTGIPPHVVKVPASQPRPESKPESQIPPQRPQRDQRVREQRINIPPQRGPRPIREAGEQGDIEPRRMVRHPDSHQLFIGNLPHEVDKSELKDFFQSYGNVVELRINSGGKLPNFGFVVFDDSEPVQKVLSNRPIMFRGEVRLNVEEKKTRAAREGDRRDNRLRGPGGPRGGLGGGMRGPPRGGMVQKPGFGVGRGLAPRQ
Constant ends, left off below: GGGAGUUCUACAGUCCGACGAUC … UGGAAUUCUCGGGUGUCAAGG
The log2 enrichment of `CAAGUCCUGUGCUACACAUCGUAUGUACCGAAUCGGAGGUUUUUUUGGAAAAAGGAAAGUAUUAUGUUACGCCGUUCGGAUCUGCACUUC` is reported as -1.1.
The log2 enrichment of `AAGUCCUGUGCUACACAUCGUAUGUACCGAAUCGGGGAAAAAGGGGUGGGGAGGGGAAAGUAUUAUGUUACGCCGUUCGGAUCUGCACUU` is reported as 0.653.
`CAAGUCCUGUGCUACACAUCGUAUGUACCGAAUCGGGCCCGGGCCCGGCCCGGGGAAAGUAUUAUGUUACGCCGUUCGGAUCUGCACUUC` gave a log2 enrichment of -0.994.
The log2 enrichment of `CAAGUCCUGUGCUACACAUCGUAUGUACCGAAUCGGGGAAAGGAAAGGGAAAGGGAAAGUAUUAUGUUACGCCGUUCGGAUCUGCACUUC` is reported as 0.0219.
For `UCCUGUGCUACACAUCGUAUGUACCGAAUCGGGAAAAAAAGGGAAAGGGUUUUUUUGGGAAAGUAUUAUGUUACGCCGUUCGGAUCUGCA`, the log2 enrichment was -0.368.
`GUCCUGUGCUACACAUCGUAUGUACCGAAUCGGGUUUUUUUGGGAGGGAAAAAAAGGGAAAGUAUUAUGUUACGCCGUUCGGAUCUGCAC` gave a log2 enrichment of -0.326.
The log2 enrichment of `UAACUUUAGAGGAGGAUCUGGUGGAUAUGGCAGUGGACGUGGAUUUGGGGAUGGCUAUAAUGGGUAUGGAGGAGGACCUGGAGGUGGCAA` is reported as 0.48.
`CUGUGCUACACAUCGUAUGUACCGAAUCGGGGUUUUUUUGGGGUUUUUUUGGGGUUUGGGGAAAGUAUUAUGUUACGCCGUUCGGAUCUG` has a log2 enrichment of -0.389.
`CUCAAGUCCUGUGCUACACAUCGUAUGUACCGAAUCGGGUGGGUGGGUUUGGGAAAGUAUUAUGUUACGCCGUUCGGAUCUGCACUUCCA` has a log2 enrichment of 0.722.
`CCUCAAGUCCUGUGCUACACAUCGUAUGUACCGAAUCGGUGGGUGGGUGGGGAAAGUAUUAUGUUACGCCGUUCGGAUCUGCACUUCCAG` has a log2 enrichment of 1.24.
With `UAACUUUAGAGGAGGAUCUGAUGGAUAUGGCAGUGGACGUGGCUUUGGGGAUGGCUAUAAUGGGUAUGGAGGAGGACCUGGAGGUGGCAA` the log2 enrichment was 0.139.
`GCAGGAAGUAAAAACAAAUGGAAAUGCUUCGGAUAGUGGCAGGGGUGGGGGUAGCUAAGGAAAGGGUGGGAUGGGAGUGGGUAAAGAGUU` gave a log2 enrichment of 1.03.
`UGGGAGGUGGAUUUUGUUUAUUUUUUUAGCUCAUUUCCAGGGGUGGGAAUUUUUUUUUAAUAUGUGUCAUGAACAAAGUUGUUUUUGAAA` gave a log2 enrichment of 0.362.
With `GUCCUGUGCUACACAUCGUAUGUACCGAAUCAAAUUUUUAAACCCCCAAAUUUUUAAAAAAGUAUUAUGUUACGCCGUUCGGAUCUGCAC` the log2 enrichment was -0.0258.

Block 2 — method: RNA Bind-n-Seq; form: RNA; sample: in vitro; concentration: 100 nM; relative to: input RNA pool; reading: higher = stronger binding
Target: RING finger protein unkempt homolog, zinc fingers 1-6, SBP tag (UNK, Homo sapiens, UniProt Q9C0B0, residues 30-357)
Sequence of UniProt Q9C0B0 (30-357, looked up): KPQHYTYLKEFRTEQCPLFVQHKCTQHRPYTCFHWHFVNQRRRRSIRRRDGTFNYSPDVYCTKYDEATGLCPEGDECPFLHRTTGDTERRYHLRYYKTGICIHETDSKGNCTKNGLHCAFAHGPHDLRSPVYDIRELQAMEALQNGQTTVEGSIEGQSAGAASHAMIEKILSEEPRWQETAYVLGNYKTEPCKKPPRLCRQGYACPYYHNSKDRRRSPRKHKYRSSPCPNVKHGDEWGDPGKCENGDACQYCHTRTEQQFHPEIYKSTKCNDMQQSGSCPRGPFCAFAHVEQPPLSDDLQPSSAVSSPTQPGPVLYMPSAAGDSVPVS
Notes: RNA with constant flanks, vertebrate orthologous sites, ends assumed
Constant ends, left off below: GGGAGUUCUACAGUCCGACGAUC … CAACAGAGGAUUGAGCAUCA
The bound/input enrichment of `AGCAACCCAAGGACUCAGGACUGGUUUAACAAAUAUGCCAAGUAGAUAUGGAACUCACAAUAGAAUUGGACAACCAAGACCAUGAUGUACUGUAAAUUAAUUUAUUUUUAUGAGGAAUAC` is reported as 1.26 ratio.
`UGAGCAUACAUAUACAAUGUGUAUCAAAUGCUGGUUGUAAAAUUAAACCAUCAUCUAGAAUAGAGUUAAUUUGUUUUAAUCAAGCUACAAAUAGGUUUUCUUAAACCAGAGAUGCACUGC` gave a bound/input enrichment of 0.436 ratio.
With `AGAGGGAAACUAUUGAAUAGUAUUAAGACUCUUGUCUUCCUUUUGGGGGGGGUCCCAUAAUAGUCUACUUUUUUAAAUUUCAGAUUUCACUGCUCUUUGAAUUGAUAUUUCCAAUUUUCU` the bound/input enrichment was 1.96 ratio.
The bound/input enrichment of `AACAUAUGUAGAAAAACCAGUUUCACUGAACCCAUUGUCAAGUUUUCUCCUAAAAUUUUAUUUGGACUUCUUUUGUUUUAUACAAGUUUGCUGUGUUUGUCAUUAUUAGUCCACAAUUAA` is reported as 0.435 ratio.
`GUUAGGUCAUGACCCUUACAGGCUAGGUCAUGAUGCCUACAGGUUAGGGCAGGACCCCUAUAGAUUAGGCCACGAUCCCUACAGACUAACUCCUGAUCCCUAUAGGAUGUCACCUAGACC` has a bound/input enrichment of 0.568 ratio.
For `CUUAAUUAGAGGGUAGUAAAUAUUUCAUAAAGAAGAGUCUUUAUAAUUUUGUUUGUCAUAUAGUAUUUUGGAAUUUGUAUAAUGAGGAUGUUUAGAAGCCAUAUCAAUGGCUUUUUUUAA`, the bound/input enrichment was 0.393 ratio.
The bound/input enrichment of `GACCUCCUGAACUUGGAGCUUUCCGGUUGUGGCUGUUUUAGAUACUGAUUUUCUUUUCCUUAGAGUUUUUCCCUCUUCCCUGCCUUCUCUUCCCCUGUUCCCAAGGUUUGACUUCUGGAU` is reported as 1.17 ratio.
With `UGCAUUAUUUGACCAGAGUUGAAGUGACAGAGUUUGAAGAUAUUAAAUCAGGUUACAGAAUAGAUUUUUAUUUUGAUGAAAACCCUUACUUCGAAAAUAAAGUUCUCUCCAAAGAAUUUC` the bound/input enrichment was 0.296 ratio.
With `GGCCUCCUGAACUUCUAGCUUUCAAGCUGUGGCUGUUUUAGAUACUGGUUUUAUUUUCUUUGCAGUUUUUCCCUGUUUCCCACAUUCUCUCCCCCUCUUCCCAAGGUUUGACUCAUGGAU` the bound/input enrichment was 1.29 ratio.
With `UUGGGACCAGCUCUCCCAGUAGGAAUAGUAGUAAAAAAAAUAAACAAAAUGACACUUGUUUAGAAAAAACAGAAGUUAAAUCAUGUAAAGUAAAUGCUGUCAGUGUUCCAGGCCCUAAAG` the bound/input enrichment was 2.53 ratio.
With `UGGGAAGUCCUGUCUGCCGUGACACCUCAGUGAGGGAGUCUCUGGGCGUUUGACUGGGCCAGCCUUGCUGGUCCUCAGCCUCUCGACAUGGAAUUCCAUCUCUUUUAUGUCUGCUCAUCC` the bound/input enrichment was 0.303 ratio.

Block 3 — target: human cyclin A2; effect on: peptide binding; method: competitive growth sequencing; form: peptide; organism: Saccharomyces cerevisiae; strain: cyclin A2-Cln2 fusion strain; concentration: concentration not given; notes: mutational scanning library; relative to: unfused Cln2 strain; reading: direction not given
`PSVRAQAFVTVVK` gave a binding score of -0.417.
For `HKTFRKLRLFDTP`, the binding score was -0.5.
For `STTRARAFVENDS`, the binding score was 0.146.
`SNARRSLNFGGST` gave a binding score of 3.23.
`TKVRRNLFNQELL` gave a binding score of 1.84.
`PSACANAFGPVDH` has a binding score of 0.0159.
`VVSADDAIQFTRV` has a binding score of 0.386.
With `PCHRAVACFDSTT` the binding score was 0.0868.

Block 4 — method: protein binding microarray; form: double-stranded DNA, one strand shown; sample: in vitro; concentration: not given; relative to: not given; reading: higher = stronger binding
Target: Histone acetyltransferase KAT6A, both winged helices, GST fusion (KAT6A, Homo sapiens, UniProt Q92794, residues 1-181)
Notes: 8-mer, flanks averaged, mean of 2 arrays, mostly near background
Residues (chain): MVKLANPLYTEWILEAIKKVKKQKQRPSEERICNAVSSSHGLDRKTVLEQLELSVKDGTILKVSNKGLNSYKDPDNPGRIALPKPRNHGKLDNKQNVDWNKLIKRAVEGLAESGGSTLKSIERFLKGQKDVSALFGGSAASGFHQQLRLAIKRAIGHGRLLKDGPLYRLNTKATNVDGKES
`AGATTGTC` has an E-score of 0.0141.
For `GAATTGTC`, the E-score was -0.103.
With `ACGCCTCC` the E-score was -0.0132.
With `AGTGGGGA` the E-score was -0.21.
With `CAATATGA` the E-score was -0.043.
`ATCGGTCA` gave an E-score of 0.0732.
`CGCACAAC` gave an E-score of 0.183.
The E-score of `ATCGTTGA` is reported as -0.173.
For `AATTCACG`, the E-score was 0.103.
`CGCTTCTA` gave an E-score of 0.117.
The E-score of `ACATGAAA` is reported as -0.0335.
For `ACACGACC`, the E-score was 0.00229.
`CACCAGTG` gave an E-score of -0.137.
With `ACAGATAG` the E-score was -0.281.
For `GGAGATAA`, the E-score was -0.0508.
For `CCTGTGGC`, the E-score was -0.176.
The E-score of `ATGTCATC` is reported as -0.118.
With `AGCAATCG` the E-score was -0.0491.
For `AGGTCAAC`, the E-score was -0.083.
For `TCGCCTCA`, the E-score was -0.0456.
`GTGTACAC` gave an E-score of 0.0361.
`AGCATGGA` gave an E-score of -0.218.
With `CCTTCCCG` the E-score was 0.144.
With `AATTAATT` the E-score was -0.1.
With `CGGACCAG` the E-score was 0.181.

Block 5 — method: RNA Bind-n-Seq; form: RNA; sample: in vitro; concentration: 365 nM; relative to: no-protein control; reading: higher = stronger binding
Target: RNA binding protein fox-1 homolog 2, RRM domain, GST-SBP tag (RBFOX2, Homo sapiens, UniProt O43251-10, residues 100-194)
Notes: natural RNA segment, single round, ends assumed
Constant ends, left off below: GGGAGUUCUACAGUCCGACGAUC … UGGAAUUCUCGGGUGCCAA
Construct (chain): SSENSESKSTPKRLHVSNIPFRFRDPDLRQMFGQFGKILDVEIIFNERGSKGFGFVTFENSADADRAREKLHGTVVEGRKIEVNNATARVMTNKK
`AGAGCCUGCAUGUGUAUGCCGUCCUCCCCUGGUCCGGUGUUUGUGUUCCCCACCCCUCACAGACUGCCUGAGCUCUUCUGUAAGCUGGGGUAGGGUGAUGGCAGUGCUCC` — result for “RBNS enrichment (R)”: 5.81.
`GGAAUAAUAAUUUUCCUCCUAAACAAAAACACAUUGAGUUUAAGUCUCUGACUCUUGCCUUUCCACCUGCUUUCUCCUGGGCCCGCUUUGCCUGCUUGAAGGAACAGUGC`: “RBNS enrichment (R)” 1.3.
`AUGGAGAUUCCUAAGAUUGGUGGAGUUGGGCAAUGCAUAGCCAUCUGACUCCUUCAGGGUGCUCUUGAUGGGCUGGCUGUAAGGGAGACUCAGUCCCAGCCUCUCCCCUC`: “RBNS enrichment (R)” 0.238.
`CUUCUCUAGGUGGACAUUAAACCAUCGUCCAAAGUACAUGAGAGUCACUGACUCUGUUCACACAACUGUAUGUCUUACUGAAGGUCCCUGAAAGAUGUUUGAGGCUUGGG`: “RBNS enrichment (R)” 0.772.
`CCCCUCCUCCCUGCUCUCCCAGGCCCCUGCCACAGCCUCUUUCCGUCCCUCUCUUUCUGAUCCAGGCCCCUCAGUCCAAGCUUUGGAAAACCUUCACCUCAUCUUAAACC`: “RBNS enrichment (R)” 0.966.
For `GGUAUUUCUAACGCCAGCACACUAUUUACAAGAUGGACUUACCUGGCAGACUUGCCCAGGUCACCAAGCAGUGGCCUUUUUCUGAGAUGCUCACUUUAUUAUCCCUAUUU`, “RBNS enrichment (R)” read 0.305.
`AAAGAAGGGUCUCACGUGGCUGGCCUGGCUCCUCCGUAGACCCCUGUUCUUUUCAACCUCUGCCCACCCGUGCAUGUCAUCACAAACAUUUGCUCUUAAGUUACAAGAGA`: “RBNS enrichment (R)” 1.42.
`GCCACAGAGUUAAGUGACCUCAGGUAACAUAAUGGUGAUGGUUGGCCAUUUGAGUCUUUGUAACCUAGGAAAGACAAAGGUCUGAUUCAGAUUGCAUGGGGGAUUUUUAA` — result for “RBNS enrichment (R)”: 1.75.
Under “RBNS enrichment (R)”, `CUCACCCGUGUCCCCGCCCCGCCCCUCCGUCCACACUGGCCGGCACCCCCUGCUGGGUCUCCUGCAUUCCACGGAGCCCCUGCUGCCAGGGCGGUGUCUGAGCCUGCCGG` is recorded as 0.53.
`AUGUGUAGGUCUACAACUGCUAGUCUAAAAACUGUUUGCACCGAGCCCUCUGAUCAGAGUGGAUGAGACCCUACAGAGGGCUGGCAGGAUUUACUAAUCUAGUGGAAUAU`: “RBNS enrichment (R)” 0.655.
For `UACUUUGAGCCGGAUCUGGCCUGUGACUAGAAGACCAACCCCUACGAGGAAAUGUGGAGCUCAACGUGUGCACUGCUUGUAUGCGUGUGGAUGUGUGGAUCCCACCUGCC`, “RBNS enrichment (R)” read 0.612.
For `AGUGCUAUCUCCAUCUACUGACUUGUGGUGUACACGUGCAUGUCUGGGUCUGUGGGUUUCUGUUGGGUGCUGAGUUGGGUGAUUUCAUUUUAGUGAAAUAUUUGUGGGCC`, “RBNS enrichment (R)” read 1.27.
